Results of several laboratories.
Compare with care: the assays were run in different laboratories. Values joined by “and” are separate records of one study, mostly repeats; a detail may differ.
Cell line: HaCaT

Compound | assay | conditions | quantity | result
COC(=O)C=Cc1ccc(OC(C)=O)c(OC)c1 | MTT | 24 h, 10% FBS | subcytotoxic concentration | 50 µM
CC[C@H](C)[C@H](NC(=O)[C@H](CCCNC(=N)N)NC(=O)[C@H](CCC(N)=O)NC(=O)[C@@H](NC(=O)[C@@H](NC(=O)[C@H](CCCNC(=N)N)NC(=O)[C@H](CCCCN)NC(=O)[C@H](Cc1ccccc1)NC(=O)CN)[C@@H](C)CC)C(C)C)C(=O)N[C@@H](CCCCN)C(=O)N[C@@H](CC(=O)O)C(=O)N[C@@H](Cc1ccccc1)C(=O)N[C@@H](CC(C)C)C(=O)N[C@@H](CCCNC(=N)N)C(=O)N[C@@H](CC(N)=O)C(=O)N[C@@H](CC(C)C)C(=O)N[C@H](C(N)=O)C(C)C | cell viability, MTS | 1 h, 37 °C, 10% FBS | LC50 | 75 µM
CC[C@H](C)[C@H](NC(=O)[C@H](CCCNC(=N)N)NC(=O)[C@H](CCCCN)NC(=O)[C@H](CCC(N)=O)NC(=O)[C@H](CCCNC(=N)N)NC(=O)[C@H](CCCNC(=N)N)NC(=O)[C@H](Cc1c[nH]cn1)NC(=O)[C@H](CC(C)C)NC(=O)[C@H](CC(C)C)NC(=O)[C@H](CCCNC(=N)N)NC(=O)[C@H](CC(C)C)NC(=O)CN)C(=O)N[C@H](C(=O)NCC(=O)NCC(=O)N[C@@H](CCCCN)C(=O)N[C@@H](CC(N)=O)C(=O)N[C@@H](CO)C(=O)N[C@@H](CC(C)C)C(=O)N[C@@H](CCCNC(=N)N)C(=O)NCC(=O)NCC(=O)N[C@@H](Cc1c[nH]c2ccccc12)C(=O)N1CCC[C@H]1C(=O)N[C@@H](Cc1c[nH]c2ccccc12)C(=O)N[C@@H](CCC(N)=O)C(=O)N[C@H](C(=O)N[C@@H](CO)C(=O)N[C@@H](CC(C)C)C(=O)N[C@@H](CCCNC(=N)N)C(=O)N[C@@H](CC(C)C)C(=O)N[C@@H](CCCCN)C(=O)O)C(C)C)[C@@H](C)CC | cell viability, MTT | – | CC50 | 26.9 µM
CC(=O)Oc1ccc(C=CC(=O)O)cc1OC(C)=O | MTT | 24 h, 10% FBS | subcytotoxic concentration | 50 µM
O=C1CCP(=S)(c2ccccc2)CC1 | trypan blue | IC50, 72 h | viability | 73%
CC[C@H](C)[C@H](NC(=O)[C@H](CCCCN)NC(=O)[C@H](CO)NC(=O)CNC(=O)[C@H](CC(C)C)NC(=O)[C@@H](N)Cc1c[nH]c2ccccc12)C(=O)N[C@@H](CCCCN)C(=O)N[C@@H](C)C(=O)N[C@@H](C)C(=O)N[C@@H](CCCCN)C(=O)N[C@@H](CCSC)C(=O)N[C@@H](CCCCN)C(=O)N[C@H](C(=O)NCC(=O)N[C@@H](CCSC)C(=O)N[C@@H](Cc1c[nH]c2ccccc12)C(=O)NCC(=O)N[C@@H](C)C(=O)N[C@H](C(=O)NCC(=O)N[C@@H](CC(C)C)C(=O)N[C@@H](CCCNC(=N)N)C(=O)N[C@@H](Cc1c[nH]cn1)C(=O)N[C@@H](CC(N)=O)C(=O)O)C(C)C)C(C)C | cytotoxicity, MTT | 24 h, 37 °C | IC50 | > 200 µM
CC[C@H](C)[C@H](NC(=O)[C@H](C)NC(=O)[C@H](CCCCN)NC(=O)[C@H](CC(N)=O)NC(=O)[C@@H](NC(=O)[C@H](CCCCN)NC(=O)[C@H](CCCCN)NC(=O)[C@H](CC(C)C)NC(=O)[C@@H](NC(=O)[C@H](CCCCN)NC(=O)CNC(=O)[C@@H](NC(=O)CNC(=O)[C@H](CC(N)=O)NC(=O)[C@@H](NC(=O)CNC(=O)[C@H](Cc1ccc(O)cc1)NC(=O)[C@H](CCCNC(=N)N)NC(=O)[C@H](CCSC)NC(=O)[C@@H](NC(=O)[C@H](CCSC)NC(=O)[C@H](C)NC(=O)[C@H](CC(C)C)NC(=O)[C@H](CCC(N)=O)NC(=O)[C@H](CCCCN)NC(=O)[C@H](CCCCN)NC(=O)[C@@H](NC(=O)[C@@H](N)CCCNC(=N)N)[C@@H](C)O)C(C)C)C(C)C)C(C)C)[C@@H](C)CC)[C@@H](C)CC)C(=O)N[C@H](C(=O)N[C@@H](CO)C(=O)N[C@@H](CCCCN)C(=O)N[C@@H](CCCCN)C(=O)N[C@@H](CC(N)=O)C(=O)N[C@@H](CCCCN)C(=O)O)C(C)C | cell viability, MTT | – | CC50 | 27.6 µM
COc1cc2ncnc(Nc3cccc(Cl)c3)c2cc1OC | – | 11.11 µM, 60 h | viability | 83.7% and 87.2% and 87.8%

A few entries again:
Compound | assay | conditions | quantity | result
CC[C@H](C)[C@H](NC(=O)[C@H](C)NC(=O)[C@H](CCCCN)NC(=O)[C@H](CC(N)=O)NC(=O)[C@@H](NC(=O)[C@H](CCCCN)NC(=O)[C@H](CCCCN)NC(=O)[C@H](CC(C)C)NC(=O)[C@@H](NC(=O)[C@H](CCCCN)NC(=O)CNC(=O)[C@@H](NC(=O)CNC(=O)[C@H](CC(N)=O)NC(=O)[C@@H](NC(=O)CNC(=O)[C@H](Cc1ccc(O)cc1)NC(=O)[C@H](CCCNC(=N)N)NC(=O)[C@H](CCSC)NC(=O)[C@@H](NC(=O)[C@H](CCSC)NC(=O)[C@H](C)NC(=O)[C@H](CC(C)C)NC(=O)[C@H](CCC(N)=O)NC(=O)[C@H](CCCCN)NC(=O)[C@H](CCCCN)NC(=O)[C@@H](NC(=O)[C@@H](N)CCCNC(=N)N)[C@@H](C)O)C(C)C)C(C)C)C(C)C)[C@@H](C)CC)[C@@H](C)CC)C(=O)N[C@H](C(=O)N[C@@H](CO)C(=O)N[C@@H](CCCCN)C(=O)N[C@@H](CCCCN)C(=O)N[C@@H](CC(N)=O)C(=O)N[C@@H](CCCCN)C(=O)O)C(C)C | cell viability, MTT | – | CC50 | 27.6 µM
